Published values gathered from unrelated publications.
Numbered parts are unrelated; each lists some results of a single study.

Series 1 — method: universal PBM; form: double-stranded DNA, one strand shown; medium: in vitro; tested at: 600 nM; direction: higher = stronger binding
Target: Sal-like protein 4, full length isoform A (SALL4, Homo sapiens, UniProt Q9UJQ4, residues 1-1053)
UniProt Q9UJQ4, sequence (whole entry, looked up): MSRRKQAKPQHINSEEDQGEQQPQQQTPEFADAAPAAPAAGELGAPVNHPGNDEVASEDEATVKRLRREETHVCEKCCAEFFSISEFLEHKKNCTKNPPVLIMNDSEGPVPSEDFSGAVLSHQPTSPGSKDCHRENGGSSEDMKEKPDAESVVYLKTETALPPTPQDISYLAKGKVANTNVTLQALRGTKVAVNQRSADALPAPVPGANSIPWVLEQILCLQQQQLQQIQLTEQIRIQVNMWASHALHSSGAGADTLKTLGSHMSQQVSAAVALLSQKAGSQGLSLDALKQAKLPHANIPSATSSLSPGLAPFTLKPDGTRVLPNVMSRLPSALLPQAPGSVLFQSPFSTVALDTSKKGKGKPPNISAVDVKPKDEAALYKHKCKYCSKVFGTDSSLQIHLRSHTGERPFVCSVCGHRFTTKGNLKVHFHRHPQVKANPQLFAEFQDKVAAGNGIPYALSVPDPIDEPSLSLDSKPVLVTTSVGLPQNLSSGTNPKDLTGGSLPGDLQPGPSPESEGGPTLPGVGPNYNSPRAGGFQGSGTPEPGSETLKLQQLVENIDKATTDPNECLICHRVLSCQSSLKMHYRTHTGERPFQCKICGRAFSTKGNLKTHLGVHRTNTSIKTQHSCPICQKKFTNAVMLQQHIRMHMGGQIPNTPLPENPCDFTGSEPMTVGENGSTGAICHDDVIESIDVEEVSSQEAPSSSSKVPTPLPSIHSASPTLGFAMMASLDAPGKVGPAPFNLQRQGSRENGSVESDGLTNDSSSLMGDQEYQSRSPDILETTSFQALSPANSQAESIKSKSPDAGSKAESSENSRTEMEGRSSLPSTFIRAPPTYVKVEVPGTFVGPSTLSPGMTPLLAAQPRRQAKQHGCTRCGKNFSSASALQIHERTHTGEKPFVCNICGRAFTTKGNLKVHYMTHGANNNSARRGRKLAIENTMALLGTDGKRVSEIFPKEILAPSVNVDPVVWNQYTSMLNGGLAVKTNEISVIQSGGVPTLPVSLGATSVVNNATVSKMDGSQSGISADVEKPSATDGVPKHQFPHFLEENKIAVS
Notes: 8-mer, flanks averaged, mean of replicates
Sequence | E-score
AGATAAAG | 0.23
GTTTGTAA | 0.13
ACCAAACT | -0.00206
GTCCTCAA | -0.0381
AAGTTCAG | 0.0478
AGCCAGCC | -0.249
AGCAGTAT | 0.131
AGACTTTA | 0.136
AATTGCTG | 0.147
GGGAACAA | -0.0004
AAGCTGTC | -0.0783
CTCCTGGA | -0.218
CTGTTATC | 0.175
CGGGGGTC | -0.427
CCGTGGGC | -0.341
CATCTGGG | -0.19
ACTCTGAC | -0.134
GACGCGCA | -0.217
CCCTTCGC | -0.174
CACGATCG | -0.0254
ATAAACAT | 0.379

Series 2 — method: competition protein-binding microarray; form: double-stranded DNA, one strand shown; medium: in vitro; tested at: 2 µM; together with: Pho4 competitor, 0.05 µM; direction: higher = stronger binding; constant ends, left off below: … GTCTTGATTCGCTTGACGCTGCTG
Target: Centromere-binding protein 1, full length, His-tagged (CBF1, Saccharomyces cerevisiae, UniProt P17106, residues 1-351)
UniProt P17106, sequence (whole entry, looked up): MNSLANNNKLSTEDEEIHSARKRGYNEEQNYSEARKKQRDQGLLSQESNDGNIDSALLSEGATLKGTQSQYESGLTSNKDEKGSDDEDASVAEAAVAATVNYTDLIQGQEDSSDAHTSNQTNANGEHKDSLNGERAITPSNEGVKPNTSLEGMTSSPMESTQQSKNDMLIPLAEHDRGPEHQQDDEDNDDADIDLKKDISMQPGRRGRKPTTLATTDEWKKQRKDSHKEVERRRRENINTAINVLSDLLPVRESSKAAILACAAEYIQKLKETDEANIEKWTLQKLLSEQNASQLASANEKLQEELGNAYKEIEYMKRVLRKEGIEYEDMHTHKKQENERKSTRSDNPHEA
Notes: whole 60-bp probe, lowest competitor level
Sequence | fluorescence intensity [a.u.]
CAGGGCACCGGTGCCGTCGTGATGGCCTCGTTGATT | 60.8
TTCTTTACCGTTTTGCACGTGCGATGCGAAAAGTAT | 1550
CTTTCCCGATCTTGTCACTACACTTTAGCACATTTG | 81.1
CACCACCTTGCAGGTCCCGTGTAGGTAGGAGTCGCA | 169
GGCCAAACAGTTGGGCACATGGCAGGAGATGTAGCC | 89.7
CTTCTGTAAATTTGTCAGGTGGGTGGACGCGCCCCG | 148
AAATTACTAAGTTTTCACGTGACCTACCCCGTATGA | 11400
GTCTTGTCTCATTCTCACGTGTTTTTCCCCACTTCA | 1230
GGATCAACAAAATGGGGCGTGATGGAGAAAAAAAGT | 174
TTTTCTGACCGCCAGTTCGTGCGATTAGTTCTGTGG | 55.7
AAAAAAATTAGGGGACGCGTGGGTAGGGCCGGCTTT | 70.3
TTCTAAATCTGCAATAACGTGGCAAGTATTCTGATC | 153
GGTTTGTTTACAGTACGCGTGGTGAGACCATAAAGG | 102
TTTTTAATTCGGAATCAGGTGAAAGGTTTTATATCC | 371
GTCCGAGAACCCACCCTCGTGTGGAACTTCTTGAGC | 69.8
ATTGCTTAGCACCGTCACGTCTTTCGTTGGCTGTCA | 87.5
CATACCCAACCTTTTCACGTGGCGTAAGATATTTGT | 740
TGCGCAACAACTTGTCACTTAACTTTATGTCTAGAA | 75.5
AAAAGTATACTCGGAAACGTGATGGAATACCTTAGG | 328
TACCAGAATTGTGAGAACATGACAAAACCAACTACG | 104
ACATTGGCATTGGCACTCATGACAATCATTTTGGAA | 84.9

Series 3 — method: protein-binding microarray; form: double-stranded DNA, one strand shown; medium: in vitro; tested at: 250 nM; notes: 60-bp whole probe; together with: salmon DNA 0.4 mg/ml; reference: random background probes; direction: higher = stronger binding
Target: Interferon regulatory factor 7, full length, phosphomimetic (IRF7, Homo sapiens, UniProt Q92985, residues 1-503, S101K/S471D/S472D/S475D/S476D/S477D/S483D/S484D/S487D)
Constant ends, left off below: GCCTAGCAC … GTGCTAGGTCTTGATTCGCTTGACGCTGCTG
Construct (chain): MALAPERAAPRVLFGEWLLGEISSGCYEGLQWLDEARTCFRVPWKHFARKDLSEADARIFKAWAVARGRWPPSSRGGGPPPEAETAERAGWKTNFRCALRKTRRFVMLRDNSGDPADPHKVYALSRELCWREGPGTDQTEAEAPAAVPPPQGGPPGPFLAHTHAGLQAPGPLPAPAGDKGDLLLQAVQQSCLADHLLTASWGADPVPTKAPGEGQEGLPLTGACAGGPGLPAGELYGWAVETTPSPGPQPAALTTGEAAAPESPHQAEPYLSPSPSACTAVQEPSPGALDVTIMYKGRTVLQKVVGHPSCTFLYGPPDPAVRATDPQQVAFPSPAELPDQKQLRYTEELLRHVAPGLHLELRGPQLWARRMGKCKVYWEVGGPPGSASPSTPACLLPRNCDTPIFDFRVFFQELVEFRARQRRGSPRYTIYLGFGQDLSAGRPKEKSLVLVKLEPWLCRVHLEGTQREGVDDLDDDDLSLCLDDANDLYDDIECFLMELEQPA
Sequence | log fluorescence
CATTATTTCAATGCAAGGTG | 0.754 z-score
GACGGAGTGGGACTGGGGAC | -0.618 z-score
CTCATTTTCGTTTTGTGTCT | 10.8 z-score
GATGGCAGTGGAAATTTTAC | -0.83 z-score
TTAGGTCTCCTTTTCCTTTC | 2.12 z-score
TCACTAATAAATATGAGACT | 0.141 z-score
ATGCATTGTTATTTGTCAAT | 0.531 z-score
TTAGATATCAGACTGGATGA | -0.179 z-score
GACGGTTCCCTTTTCCTGGC | 2.74 z-score
TTTGCTTTCTTTATGCACTC | 0.849 z-score
TTACGTTCCGGTTTCGGTTA | 9.55 z-score

Single results of other studies
Molecule | target | test | test system | setting | how to read | quantity | value
PhoQ, residues 284 288 289 292 302 303 TLMATV | PhoP, residues 12 14 15 18 19 IQFRS (Escherichia coli, UniProt P23836) | Sort-seq, measured: YFP reporter | E. coli | PhoQ-PhoP variant library, together with: 10 µM Mg2+ | reference: high Mg2+ state, higher = stronger signaling | fold induction | 7.86
